Assay results collected from several papers.
Parts stem from different laboratories: compare values within a part only.

Sample 1 — technique: universal PBM; form: double-stranded DNA, one strand shown; sample: in vitro; tested at: 600 nM; reading: higher = stronger binding
Target: Sal-like protein 4, full length isoform A (SALL4, Homo sapiens, UniProt Q9UJQ4, residues 1-1053)
Sequence of UniProt Q9UJQ4 (whole entry, looked up): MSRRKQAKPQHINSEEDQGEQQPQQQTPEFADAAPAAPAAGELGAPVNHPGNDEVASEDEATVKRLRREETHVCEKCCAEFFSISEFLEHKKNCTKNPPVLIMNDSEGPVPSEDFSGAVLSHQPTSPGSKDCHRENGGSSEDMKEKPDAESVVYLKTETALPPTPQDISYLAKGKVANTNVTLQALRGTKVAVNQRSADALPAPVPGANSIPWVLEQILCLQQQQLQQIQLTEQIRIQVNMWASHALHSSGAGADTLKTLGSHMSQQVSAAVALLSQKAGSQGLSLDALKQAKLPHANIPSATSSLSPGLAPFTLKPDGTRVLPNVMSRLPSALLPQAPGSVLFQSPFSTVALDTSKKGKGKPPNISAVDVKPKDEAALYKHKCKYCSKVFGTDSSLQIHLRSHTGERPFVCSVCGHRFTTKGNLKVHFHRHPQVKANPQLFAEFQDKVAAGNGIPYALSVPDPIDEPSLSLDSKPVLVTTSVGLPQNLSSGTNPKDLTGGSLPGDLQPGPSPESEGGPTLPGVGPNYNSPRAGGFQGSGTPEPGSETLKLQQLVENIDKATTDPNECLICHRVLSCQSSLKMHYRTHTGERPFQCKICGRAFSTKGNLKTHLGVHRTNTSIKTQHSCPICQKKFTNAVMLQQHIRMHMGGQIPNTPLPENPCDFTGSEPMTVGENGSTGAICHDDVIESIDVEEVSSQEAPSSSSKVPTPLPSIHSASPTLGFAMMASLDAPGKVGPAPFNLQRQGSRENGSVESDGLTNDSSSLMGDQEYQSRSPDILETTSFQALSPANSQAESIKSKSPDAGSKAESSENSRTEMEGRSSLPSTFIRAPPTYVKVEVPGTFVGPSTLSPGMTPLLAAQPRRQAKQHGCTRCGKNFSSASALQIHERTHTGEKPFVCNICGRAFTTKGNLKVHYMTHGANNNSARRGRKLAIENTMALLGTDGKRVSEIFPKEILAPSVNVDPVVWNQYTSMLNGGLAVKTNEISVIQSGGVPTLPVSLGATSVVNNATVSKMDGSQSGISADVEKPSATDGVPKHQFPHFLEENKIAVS
Setting: 8-mer, flanks averaged, mean of replicates
`CAGCACGA` has an E-score of -0.182.
The E-score of `AGCAGGAA` is reported as 0.0183.
The E-score of `AAGATCTC` is reported as 0.0255.
The E-score of `CACATCCC` is reported as -0.167.
`CTTCAACA` gave an E-score of 0.184.
For `AACACCAA`, the E-score was 0.0775.
For `GTCTTGGA`, the E-score was -0.023.
With `ACTATCTG` the E-score was -0.0632.
`CACAACCG` gave an E-score of -0.023.
`AGTGGGTA` has an E-score of -0.133.
For `CCAATAAG`, the E-score was 0.151.
`ATTGTATG` gave an E-score of 0.251.
For `ACCCATAA`, the E-score was 0.19.
For `TAACCGGA`, the E-score was -0.0675.
The E-score of `CTCATAAA` is reported as 0.302.
With `AGGTACAA` the E-score was 0.0603.
With `GTCCAAGA` the E-score was -0.194.

Sample 2 — technique: protein binding microarray; form: double-stranded DNA, one strand shown; sample: in vitro; tested at: not given; reference: not given; reading: higher = stronger binding
Target: Histone acetyltransferase KAT6A, winged helix 2, GST fusion (KAT6A, Homo sapiens, UniProt Q92794, residues 85-181)
Setting: 8-mer, flanks averaged, mean of 2 arrays, mostly near background
Residues (chain): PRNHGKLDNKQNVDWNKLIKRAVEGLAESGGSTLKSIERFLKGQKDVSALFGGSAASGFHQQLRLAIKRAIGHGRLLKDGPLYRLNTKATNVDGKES
With `GCGACTGA` the E-score was 0.0546.
`AACCGTCA` has an E-score of -0.0211.
The E-score of `CCGTCGCC` is reported as 0.201.
`GAGTTACC` gave an E-score of -0.0471.
The E-score of `TGGCAGAA` is reported as 0.186.
With `GATCTCGC` the E-score was 0.126.
With `AAAACTGT` the E-score was -0.0615.
`GACACTAA` gave an E-score of 0.0616.
`CCCGAGCA` gave an E-score of 0.0848.
For `AAAATTAC`, the E-score was -0.0109.
The E-score of `GTATCTTA` is reported as 0.142.
For `CGCCAAAC`, the E-score was 0.0999.
With `CTGGACAC` the E-score was -0.0407.
For `CATTGACC`, the E-score was -0.105.
The E-score of `AAGTCACC` is reported as -0.0997.
The E-score of `CGGTTGGC` is reported as 0.272.
`GATGGCGC` has an E-score of -0.0423.
With `TGGGGACA` the E-score was -0.00264.
`ATATTGAC` gave an E-score of -0.0118.
With `ACAATTGT` the E-score was -0.11.

Sample 3 — technique: RNA Bind-n-Seq; form: RNA; sample: in vitro; tested at: not given; reference: input RNA pool; reading: higher = stronger binding
Target: RING finger protein unkempt homolog, zinc fingers 1-6, GST-SBP tag (UNK, Homo sapiens, UniProt Q9C0B0, residues 30-357)
Setting: RNA with constant flanks, human and mouse sites, ends assumed
Target sequence (chain): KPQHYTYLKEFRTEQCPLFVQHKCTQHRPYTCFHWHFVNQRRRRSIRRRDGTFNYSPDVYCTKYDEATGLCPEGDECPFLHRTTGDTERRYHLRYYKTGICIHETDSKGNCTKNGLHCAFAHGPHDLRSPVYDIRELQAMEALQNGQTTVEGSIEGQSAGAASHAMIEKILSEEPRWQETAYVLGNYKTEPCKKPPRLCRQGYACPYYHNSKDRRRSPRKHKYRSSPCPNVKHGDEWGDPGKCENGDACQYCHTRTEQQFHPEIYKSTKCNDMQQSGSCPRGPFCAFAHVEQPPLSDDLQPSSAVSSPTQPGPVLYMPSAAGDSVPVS
`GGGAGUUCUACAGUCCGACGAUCCAUACUGUUUCCAGCUGUUGGUUCUGGAUAACUCUCGAGUGCGUCUCAAACCCAAAGCCAGGUUGACACCCAAAAUACAGAAACUUCUUAAUCGAGAAGCGAGAAACUAUACACUCAGUUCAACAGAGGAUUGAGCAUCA` has a bound/input enrichment of 0.0939 ratio.
With `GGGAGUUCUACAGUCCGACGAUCCAUCAUCGGGUGGGCGAGACAGCCCCACCCAAUGCCUACACUGUCACUGACCUAGUGGAGUAUAGCAUCGUGAUCCAGCAGCUCUCAAAUGGCAAAUGGGUCCCCUUUGAUGGCGAUGACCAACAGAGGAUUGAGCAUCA` the bound/input enrichment was 0.145 ratio.
The bound/input enrichment of `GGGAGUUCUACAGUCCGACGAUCAAACAGAAGGUUUCGGAGUCCCUGAUGUUCUCUUUUCCUCCUGCUUUUAUCCCCUCUGCCUUCCUCCACAUGUUUCUCCUCAGGGCCACGUGGUCUUUGAUGCCAGCGGCUCCCGGAUGGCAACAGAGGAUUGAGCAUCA` is reported as 0.137 ratio.
`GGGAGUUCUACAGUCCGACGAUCUGACUAUUAUAUGGUGGGUGUGUUUCCUUACCAGCGUGAGUAUGAGUGCCCAGACUUCCCCAGCAGAGAAGGGCCUGAAUCCGGGGCUGAUGUGCCAGGAAAGUUACGCUUGCAGCGGGACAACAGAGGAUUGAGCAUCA` gave a bound/input enrichment of 0.246 ratio.
With `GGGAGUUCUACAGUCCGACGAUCCCAAUCGUGGAGCAGUACUUGAAGACAAAAAAGAACUCUAGUCAUUUAAUCAUGAAAUACAUUAGCUGCCGGCUGGUGACAUUUGUGGUUAUACUGUUGGCAUGUAUCUACUUGAGCUAUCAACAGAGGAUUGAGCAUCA` the bound/input enrichment was 0.229 ratio.
For `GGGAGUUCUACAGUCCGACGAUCAGGGAAGUCUGAAAUCCACACUGCAUUUUUAAUGAAUCCAAAUAACUUUAUUACGUUCUUUCAAAUGAAAAGGACAAGUUUUAUACAGUGAGAAUUGGGUGAUUUUUUUUUUUUUUACAUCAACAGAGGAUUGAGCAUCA`, the bound/input enrichment was 3.03 ratio.
With `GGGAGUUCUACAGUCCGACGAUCAUUAUGUCUUAUAAUCCUGCAUCACUUCUAUCCUAUCCAGUCAUAUCUAAUGUAGAAAAUUAGUUUCCAGUGAAAGUAAUAUGUAGUGCUUUUAUGAUAUUUGUGUGCAAUAUCCCCUCUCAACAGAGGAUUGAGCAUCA` the bound/input enrichment was 5.03 ratio.
With `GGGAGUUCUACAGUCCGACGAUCAUUGCAACAAAUGGAGAAAGUGCUGUGGUACAAUUACCAAAAAAUGGCCCAAUUUAUGAUGUAGUUUGGAAUUCCAGUUCUACUGAGUUUUGCGCUGUUUAUGGUUUUAUGCCUGCGAAACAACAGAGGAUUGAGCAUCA` the bound/input enrichment was 0.108 ratio.

Sample 4 — technique: aptamer microarray, sandwich; form: DNA with 2'F-ANA; sample: in vitro; tested at: 200 nM; with: Cy3 exosite-II aptamer, 400 nM; reading: higher = stronger binding; strand: GGTTGGTGTGGTTGG
Target: Prothrombin, mature alpha-thrombin (F2, Homo sapiens, UniProt P00734)
Setting: whole 15-mer aptamer, many near background
For `2'F-ANA at 1 2 3 4 5 12 13`, “mean fluorescence intensity” read 93.3 a.u.
`2'F-ANA at 3 6 10 11 14` — result for “mean fluorescence intensity”: 371 a.u.
`2'F-ANA at 4 5 9 11 12 13 15`: “mean fluorescence intensity” 72.2 a.u.
`2'F-ANA at 1 2 9 10 11 12 13 15` — result for “mean fluorescence intensity”: 69.3 a.u.
Under “mean fluorescence intensity”, `2'F-ANA at 7 9 10 11` is recorded as 189 a.u.
`2'F-ANA at 1 2 3 5 6 7 8 10 11 14 15` — result for “mean fluorescence intensity”: 47 a.u.
`2'F-ANA at 2 11 12 13 14 15` — result for “mean fluorescence intensity”: 149 a.u.
`2'F-ANA at 2 5 7 8 9 12 14 15`: “mean fluorescence intensity” 70.7 a.u.
`2'F-ANA at 1 3 6 7 8 12`: “mean fluorescence intensity” 630 a.u.
For `2'F-ANA at 1 2 3 4 6 9 10 11 12 13 14 15`, “mean fluorescence intensity” read 58.8 a.u.
For `2'F-ANA at 2 3 6 9 10 11 14`, “mean fluorescence intensity” read 282 a.u.
`2'F-ANA at 6 7 9 14` — result for “mean fluorescence intensity”: 158 a.u.
`2'F-ANA at 1 2 9 10 11 13`: “mean fluorescence intensity” 51.3 a.u.
For `2'F-ANA at 1 2 6 7 8 9 11 12 13`, “mean fluorescence intensity” read 217 a.u.
For `2'F-ANA at 2 3 8 9 10 13 15`, “mean fluorescence intensity” read 329 a.u.
`2'F-ANA at 1 3 6 11 12 15`: “mean fluorescence intensity” 408 a.u.
For `2'F-ANA at 2 3 5 7 8 10 12 14`, “mean fluorescence intensity” read 57.1 a.u.
`2'F-ANA at 1 2 3 5 7 10 11 12 14 15`: “mean fluorescence intensity” 45 a.u.
Under “mean fluorescence intensity”, `2'F-ANA at 3 5 6 7 8 9 11 12 14 15` is recorded as 86.8 a.u.
`2'F-ANA at 3 5 6 7 10 12 14`: “mean fluorescence intensity” 54.7 a.u.
`2'F-ANA at 5 6 9 10 11 12 13 14 15`: “mean fluorescence intensity” 57.3 a.u.
`2'F-ANA at 1 3 4 5 6 13 15`: “mean fluorescence intensity” 49 a.u.
For `2'F-ANA at 1 2 3 4 6 8 10 11 12 13 14`, “mean fluorescence intensity” read 72.9 a.u.
`2'F-ANA at 2 5 6 10 12 13 14 15`: “mean fluorescence intensity” 49.4 a.u.

Sample 5 — technique: RNA Bind-n-Seq; form: RNA; sample: in vitro; tested at: 365 nM; reference: no-protein control; reading: higher = stronger binding
Target: RNA binding protein fox-1 homolog 2, RRM domain, GST-SBP tag (RBFOX2, Homo sapiens, UniProt O43251-10, residues 100-194)
Setting: natural RNA segment, single round, ends assumed
Construct (chain): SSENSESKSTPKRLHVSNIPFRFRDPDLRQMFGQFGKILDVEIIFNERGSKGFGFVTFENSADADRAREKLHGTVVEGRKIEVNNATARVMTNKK
`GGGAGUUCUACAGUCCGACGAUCUCCAAGUCACUAAAGAGUUACUAAAGUUAGGCACUUAAUACUAAUUUUAAAUAUGUCUAAAAAUAAAGUAAUCUGGGGACUGAGUUGAAAUGUCAGUGAACAUGAGUAUUUGGAAUUCUCGGGUGCCAA` — result for “RBNS enrichment (R)”: 0.35.
Under “RBNS enrichment (R)”, `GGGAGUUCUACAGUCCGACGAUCGCUCUCCAAUGAGAGCCUGACUGGCUUCUAGAGCAGGCUGUCACAGAAGGGGAGGUAGGGUCGACUGUGAGUGCAUGCCAUCUUUGUCAGACUGGUGACAGAGUUCCUGUUGGAAUUCUCGGGUGCCAA` is recorded as 3.88.
For `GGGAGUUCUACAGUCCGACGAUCGUACUUCCACAAAGCAUCCCUUGGUUUUAUUCCAGUUUGUUGCUUUACGUAUUUGUAAGUAUUAAACACCAAUUACUAAAUUAUCUGUAAUUCAGAUUUGUCAUUUGGAGUGGAAUUCUCGGGUGCCAA`, “RBNS enrichment (R)” read 0.315.
Under “RBNS enrichment (R)”, `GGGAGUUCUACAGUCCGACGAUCAGAUACUCCCCUGAGUCCCCGAUCUAGGGCCAGCUGCAGAGGGCUCUCUCUAGGCAGAGCGUUCCUGGCCAGAGCUCUACCUCUUUGCCUCCUGCUGACCCCUGACAGCGUGGAAUUCUCGGGUGCCAA` is recorded as 0.289.
`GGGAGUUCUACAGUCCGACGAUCCUCUGCUGUUUGGUCUUCACUCUCUCUUCCUUGGAGGGAAAGCUACAAGAGACUCUCUUUUUAAUUCCUUGAGUACCCUUUGCCCCACUUCCAAGAGAGGACAGCAAGUCUGGAAUUCUCGGGUGCCAA` — result for “RBNS enrichment (R)”: 0.302.
`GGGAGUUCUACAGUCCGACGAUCGUAUACAGUGCAGAGCCUUCUCAGAAGCACAUGAUAUUUUUGUAUUUCCUUUAUGUGAAUUUUUAAGCUGCGAAUCUGAUGGCCUUAAUUUCCUUUUUGACACUGAAAGUUGGAAUUCUCGGGUGCCAA`: “RBNS enrichment (R)” 0.392.
Under “RBNS enrichment (R)”, `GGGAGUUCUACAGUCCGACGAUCAGCAUCUGCACUGGAAAUGCAGCAGGAGGGCCCAGUGAGGGAGGCCUGGAAAGUCCACUUGGACUUGACAAUGAGGAGCUCUCUGCUGUCACCUGCUGUGAUUCCUAGAGUGGAAUUCUCGGGUGCCAA` is recorded as 0.401.
For `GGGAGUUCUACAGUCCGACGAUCAUACUCACUUGAGUCAGGCUCCCUCUGGCAGGAGGGAGCACUGUGGAUGUCUGCGCCAGGGCCAGCCACAUGUGCAGUUUCUCUGACCCUUUUGCCUUGACAGGUCUCUCUGGAAUUCUCGGGUGCCAA`, “RBNS enrichment (R)” read 0.566.
